Published values pooled from the literature.
Numbered parts are unrelated; each lists some results of a single study. “And” joins repeats or separate records; there may be more than shown.
UniProt Q07912, sequence (whole entry, looked up): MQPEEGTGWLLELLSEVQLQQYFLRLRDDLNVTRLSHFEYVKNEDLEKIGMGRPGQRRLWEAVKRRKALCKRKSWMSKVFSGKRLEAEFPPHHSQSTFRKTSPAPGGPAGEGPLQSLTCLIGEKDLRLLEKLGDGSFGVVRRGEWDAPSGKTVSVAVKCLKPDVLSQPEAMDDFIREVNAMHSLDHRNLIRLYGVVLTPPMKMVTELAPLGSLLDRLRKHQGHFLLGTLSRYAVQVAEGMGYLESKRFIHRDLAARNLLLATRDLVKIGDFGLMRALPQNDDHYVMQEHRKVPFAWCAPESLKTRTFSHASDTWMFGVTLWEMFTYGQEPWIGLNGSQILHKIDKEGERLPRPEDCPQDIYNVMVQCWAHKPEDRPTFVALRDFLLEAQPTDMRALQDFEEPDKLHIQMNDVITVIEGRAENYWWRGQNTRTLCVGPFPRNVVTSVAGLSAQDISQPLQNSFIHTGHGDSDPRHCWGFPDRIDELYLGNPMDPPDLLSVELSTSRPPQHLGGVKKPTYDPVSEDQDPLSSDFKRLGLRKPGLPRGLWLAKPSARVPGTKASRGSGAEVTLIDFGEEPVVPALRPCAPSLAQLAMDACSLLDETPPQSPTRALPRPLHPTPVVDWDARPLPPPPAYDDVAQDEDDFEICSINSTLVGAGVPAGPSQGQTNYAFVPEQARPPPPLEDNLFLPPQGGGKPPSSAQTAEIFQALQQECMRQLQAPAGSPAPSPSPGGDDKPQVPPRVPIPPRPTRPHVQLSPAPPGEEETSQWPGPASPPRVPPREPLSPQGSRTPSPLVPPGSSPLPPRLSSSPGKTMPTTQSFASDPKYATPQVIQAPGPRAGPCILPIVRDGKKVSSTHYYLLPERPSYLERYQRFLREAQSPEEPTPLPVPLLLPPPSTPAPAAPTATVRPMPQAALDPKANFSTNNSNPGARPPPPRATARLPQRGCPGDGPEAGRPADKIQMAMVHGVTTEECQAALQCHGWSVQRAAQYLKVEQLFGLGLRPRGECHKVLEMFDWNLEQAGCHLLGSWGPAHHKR
UniProt O75914, sequence (whole entry, looked up): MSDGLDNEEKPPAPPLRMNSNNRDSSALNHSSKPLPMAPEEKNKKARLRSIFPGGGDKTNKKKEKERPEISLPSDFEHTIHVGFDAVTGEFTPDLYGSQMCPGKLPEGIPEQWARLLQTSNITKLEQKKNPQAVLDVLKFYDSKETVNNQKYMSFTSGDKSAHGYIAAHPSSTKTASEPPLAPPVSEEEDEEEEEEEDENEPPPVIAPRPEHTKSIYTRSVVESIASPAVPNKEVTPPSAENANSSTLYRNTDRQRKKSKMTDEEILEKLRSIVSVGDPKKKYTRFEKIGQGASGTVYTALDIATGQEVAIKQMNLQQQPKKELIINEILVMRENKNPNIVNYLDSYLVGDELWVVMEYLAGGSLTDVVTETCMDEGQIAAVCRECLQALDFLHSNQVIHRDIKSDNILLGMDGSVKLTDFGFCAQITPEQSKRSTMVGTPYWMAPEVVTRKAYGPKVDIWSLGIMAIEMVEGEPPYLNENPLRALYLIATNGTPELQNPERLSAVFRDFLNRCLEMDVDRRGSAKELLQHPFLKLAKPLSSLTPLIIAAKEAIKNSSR
UniProt P53667, sequence (whole entry, looked up): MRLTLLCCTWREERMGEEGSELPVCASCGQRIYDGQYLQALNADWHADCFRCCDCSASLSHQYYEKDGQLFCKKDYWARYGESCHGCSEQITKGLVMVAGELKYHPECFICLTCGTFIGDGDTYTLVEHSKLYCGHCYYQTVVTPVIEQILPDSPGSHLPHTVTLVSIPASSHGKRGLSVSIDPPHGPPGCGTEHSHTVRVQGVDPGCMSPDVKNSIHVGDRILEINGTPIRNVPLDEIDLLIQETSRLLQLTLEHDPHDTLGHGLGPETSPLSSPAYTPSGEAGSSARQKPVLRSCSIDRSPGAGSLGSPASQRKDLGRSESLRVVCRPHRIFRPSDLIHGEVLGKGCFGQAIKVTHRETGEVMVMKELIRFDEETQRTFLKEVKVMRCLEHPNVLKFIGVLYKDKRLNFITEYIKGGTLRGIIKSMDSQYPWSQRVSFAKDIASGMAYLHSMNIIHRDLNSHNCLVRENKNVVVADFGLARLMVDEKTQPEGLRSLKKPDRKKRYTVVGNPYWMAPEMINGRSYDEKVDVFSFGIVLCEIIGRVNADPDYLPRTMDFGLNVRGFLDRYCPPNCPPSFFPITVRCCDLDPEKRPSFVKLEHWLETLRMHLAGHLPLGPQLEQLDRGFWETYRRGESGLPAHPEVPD
UniProt P36894, sequence (whole entry, looked up): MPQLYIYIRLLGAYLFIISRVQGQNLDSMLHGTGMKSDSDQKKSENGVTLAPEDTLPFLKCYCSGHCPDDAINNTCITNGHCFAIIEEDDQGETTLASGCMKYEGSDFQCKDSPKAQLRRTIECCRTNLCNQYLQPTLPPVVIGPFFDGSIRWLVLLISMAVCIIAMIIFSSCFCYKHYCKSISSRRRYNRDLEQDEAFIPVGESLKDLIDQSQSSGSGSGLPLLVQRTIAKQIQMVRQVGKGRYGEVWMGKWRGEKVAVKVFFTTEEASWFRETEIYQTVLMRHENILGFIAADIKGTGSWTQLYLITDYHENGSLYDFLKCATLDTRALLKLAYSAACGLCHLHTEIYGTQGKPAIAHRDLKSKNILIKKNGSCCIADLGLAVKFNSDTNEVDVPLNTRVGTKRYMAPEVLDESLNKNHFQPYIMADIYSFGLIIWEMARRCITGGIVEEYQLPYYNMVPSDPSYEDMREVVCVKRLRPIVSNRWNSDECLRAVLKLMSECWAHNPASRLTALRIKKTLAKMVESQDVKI
UniProt P29317, sequence (whole entry, looked up): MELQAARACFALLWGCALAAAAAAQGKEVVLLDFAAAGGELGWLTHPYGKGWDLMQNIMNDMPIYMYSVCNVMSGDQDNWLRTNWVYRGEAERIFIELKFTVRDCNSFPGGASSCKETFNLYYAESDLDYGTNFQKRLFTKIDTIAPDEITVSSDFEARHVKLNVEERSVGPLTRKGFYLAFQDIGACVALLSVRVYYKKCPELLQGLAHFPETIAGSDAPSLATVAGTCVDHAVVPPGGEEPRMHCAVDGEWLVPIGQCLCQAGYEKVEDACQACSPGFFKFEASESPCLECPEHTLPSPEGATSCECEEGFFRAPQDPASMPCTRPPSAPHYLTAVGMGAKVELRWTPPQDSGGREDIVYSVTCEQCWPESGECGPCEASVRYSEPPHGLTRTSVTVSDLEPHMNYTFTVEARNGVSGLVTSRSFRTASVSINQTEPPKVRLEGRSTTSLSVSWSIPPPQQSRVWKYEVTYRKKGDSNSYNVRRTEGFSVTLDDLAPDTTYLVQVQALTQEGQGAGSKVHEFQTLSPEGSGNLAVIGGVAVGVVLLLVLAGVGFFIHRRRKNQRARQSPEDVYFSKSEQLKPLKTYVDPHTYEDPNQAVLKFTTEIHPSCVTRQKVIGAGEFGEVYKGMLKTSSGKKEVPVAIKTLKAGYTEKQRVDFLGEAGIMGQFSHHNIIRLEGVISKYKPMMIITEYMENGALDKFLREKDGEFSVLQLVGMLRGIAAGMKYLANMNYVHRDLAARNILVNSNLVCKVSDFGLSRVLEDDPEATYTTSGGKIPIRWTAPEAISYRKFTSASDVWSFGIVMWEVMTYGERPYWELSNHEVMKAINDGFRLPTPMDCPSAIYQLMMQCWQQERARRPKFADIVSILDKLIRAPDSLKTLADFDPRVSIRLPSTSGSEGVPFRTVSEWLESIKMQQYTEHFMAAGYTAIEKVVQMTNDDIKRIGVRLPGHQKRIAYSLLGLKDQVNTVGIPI

Sample 1 — concentration: 1 µM
Compound: Cn1nc(C(F)(F)F)cc1-c1cnc(N2CCc3cc(S(=O)(=O)Nc4c(F)cc(Cl)cc4F)cc(N4CCCC4=O)c32)nc1
target | effect on | technique | remaining binding
PIM1 (Homo sapiens, UniProt P11309) | cell-free assay | competition with immobilised ligand | 97%
CDK9 (Homo sapiens, UniProt P50750) | cell-free assay | competition with immobilised ligand | 100%
BUB1 (Homo sapiens, UniProt O43683) | cell-free assay | competition with immobilised ligand | 87%
BRAF (Homo sapiens, UniProt P15056, V600E) | cell-free assay | competition with immobilised ligand | 100%
MAK (Homo sapiens, UniProt P20794) | binding | competition with immobilised ligand | 100%
FLT3 (Homo sapiens, UniProt P36888, R834Q) | cell-free assay | competition with immobilised ligand | 97%
Tyrosine-protein kinase ABL1, phosphorylated (ABL1, Homo sapiens, UniProt P00519, F317I) | binding |  | 85%
PTK6 (Homo sapiens, UniProt Q13882) | cell-free assay | competition with immobilised ligand | 90%
FES (Homo sapiens, UniProt P07332) | cell-free assay | competition with immobilised ligand | 100%
CDK11B (Homo sapiens, UniProt P21127) | cell-free assay | competition with immobilised ligand | 100%
MATK (Homo sapiens, UniProt P42679) | cell-free assay | competition with immobilised ligand | 91%
EPHA2 (Homo sapiens, UniProt P29317) | cell-free assay | competition with immobilised ligand | 100%
PLK3 (Homo sapiens, UniProt Q9H4B4) | cell-free assay | competition with immobilised ligand | 79%
MAP4K1 (Homo sapiens, UniProt Q92918) | cell-free assay | competition with immobilised ligand | 100%
PIK3CA (Homo sapiens, UniProt P42336, E545A) | cell-free assay | competition with immobilised ligand | 84%
PI4KB (Homo sapiens, UniProt Q9UBF8) | cell-free assay | competition with immobilised ligand | 77%
CDK5 (Homo sapiens, UniProt Q00535) | cell-free assay | competition with immobilised ligand | 100%
TEK (Homo sapiens, UniProt Q02763) | cell-free assay | competition with immobilised ligand | 99%
BMPR1A (Homo sapiens, UniProt P36894) | binding | competition with immobilised ligand | 98%
PIK3CB (Homo sapiens, UniProt P42338) | cell-free assay | competition with immobilised ligand | 85%
CHEK1 (Homo sapiens, UniProt O14757) | cell-free assay | competition with immobilised ligand | 100%
STK17B (Homo sapiens, UniProt O94768) | cell-free assay | competition with immobilised ligand | 100%

Sample 2 — effect on: RNA clamping; technique: fluorescence polarization; concentration: concentration not given; together with: FAM-labelled poly r(AG)8 RNA; direction: higher = more clamping
Target: Eukaryotic initiation factor 4A-I (EIF4A1, Homo sapiens, UniProt P60842)
UniProt P60842, sequence (whole entry, looked up): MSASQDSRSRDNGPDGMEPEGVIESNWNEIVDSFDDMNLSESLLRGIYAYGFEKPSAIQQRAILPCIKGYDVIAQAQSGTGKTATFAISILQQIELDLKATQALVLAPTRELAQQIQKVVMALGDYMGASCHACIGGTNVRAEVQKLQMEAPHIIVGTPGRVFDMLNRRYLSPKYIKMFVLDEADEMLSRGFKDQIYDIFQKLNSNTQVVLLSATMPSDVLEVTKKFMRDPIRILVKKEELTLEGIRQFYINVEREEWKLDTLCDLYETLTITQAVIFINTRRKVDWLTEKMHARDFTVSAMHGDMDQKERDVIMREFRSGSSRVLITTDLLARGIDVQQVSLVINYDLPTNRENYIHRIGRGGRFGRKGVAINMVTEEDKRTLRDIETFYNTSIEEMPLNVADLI
SMILES | fluorescence polarization change
COC(=O)[C@@H]1[C@@H](c2ccccc2)[C@]2(c3ccc(OC)cc3)Oc3cc(OC)cc(OC)c3[C@@]23NC(c2ccc(C(F)(F)F)cc2)=N[C@@]13O | 11.5 mP
O[C@@H]1C2(O)c3ccccc3O[C@]1(c1ccccc1)[C@@H](/C=C/c1ccccc1)[C@@H]2c1ccccc1 | 9.6 mP
COC(=O)[C@@H]1[C@@H](c2ccccc2)[C@]2(c3ccc(OC)cc3)Oc3cc(OC)cc(OC)c3[C@@]23OC(c2ccccc2Cl)=N[C@@]13O | -16.8 mP
COC(=O)[C@H]1C(=O)[C@@]2(NCC3CCNCC3)c3c(OC)cc(OC)cc3O[C@@]2(c2ccc(OC)cc2)[C@@H]1c1ccccc1 | -8.2 mP
COC(=O)/C=C/n1c(-c2ccccc2)nc2c(c1=O)[C@@H](c1ccccc1)[C@]1(c3ccc(OC)cc3)Oc3cc(OC)cc(OC)c3[C@]21O | 5.2 mP
COc1ccc([C@@]23Oc4cc(OC)cc(OC)c4[C@]2(O)[C@H](O)[C@H](C(=O)c2ccccc2)[C@H]3c2ccccc2)cc1 | -0.2 mP
COc1ccc([C@]23[C@H](c4ccccc4)C[C@@H](O)[C@@]2(O)c2c(F)cccc2N3C)cc1 | 1.7 mP
COCCN[C@@]12/C(=N/O)C[C@@H](c3ccccc3)[C@]1(c1ccc(OC)cc1)Oc1cc(OC)cc(OC)c12 | -4.6 mP
COC(=O)[C@H]1C(=O)[C@@]2(NCCN3CCOCC3)c3c(OC)cc(OC)cc3O[C@@]2(c2ccc(OC)cc2)[C@@H]1c1ccccc1 | 13.5 mP
COc1cc(OC)c2c(c1)O[C@@]1(c3ccc(Br)cc3)[C@H](c3ccccc3)[C@@H](C(=O)N(C)OC)[C@@H](O)[C@@]21O | 72.9 mP
COC(=O)[C@@H]1[C@@H](c2ccccc2)[C@]2(c3ccc(OC)cc3)Oc3cc(OC)cc(OC)c3[C@@]23NC(Cc2ccccc2)=N[C@@]13O | 65.4 mP and 43.3 mP
COC(=O)[C@@H]1[C@@H](c2ccccc2)[C@]2(c3ccc(OC)cc3)Oc3cc(OC)cc(OC)c3[C@@]23NC(c2ccc(Br)cc2)=N[C@@]13O | 14 mP
COc1ccc([C@H]2[C@H](C(=O)N(C)C)[C@@H](O)[C@@]3(O)c4c(OC)cc(OC)cc4O[C@@]23c2ccc(OC)cc2)cc1 | 7 mP
C#CCOc1nc(-c2ccccc2)nc2c1[C@@H](c1ccccc1)[C@]1(c3ccc(OC)cc3)Oc3cc(OCC(=O)OCC)cc(OC)c3[C@]21OCC(=O)OCC | -13.2 mP
COC(=O)[C@@H]1[C@@H](c2ccccc2)[C@]2(c3ccc(OC)cc3)Oc3cc(OC)cc(OC)c3[C@@]23NC(C(F)(F)F)=N[C@@]13O | 30.7 mP
COc1cc(OC)c2c(c1)O[C@@]1(c3ccc(OC)c(O)c3)[C@H](c3ccccc3)[C@@H](C(=O)N(C)OC)[C@@H](O)[C@@]21O | 69.5 mP

Sample 3 — effect on: enzyme activity; action: inhibitor; concentration: 0.5 µM; relative to: control
Target: Fibroblast growth factor receptor 2 (FGFR2, Homo sapiens, UniProt P21802)
UniProt P21802, sequence (whole entry, looked up): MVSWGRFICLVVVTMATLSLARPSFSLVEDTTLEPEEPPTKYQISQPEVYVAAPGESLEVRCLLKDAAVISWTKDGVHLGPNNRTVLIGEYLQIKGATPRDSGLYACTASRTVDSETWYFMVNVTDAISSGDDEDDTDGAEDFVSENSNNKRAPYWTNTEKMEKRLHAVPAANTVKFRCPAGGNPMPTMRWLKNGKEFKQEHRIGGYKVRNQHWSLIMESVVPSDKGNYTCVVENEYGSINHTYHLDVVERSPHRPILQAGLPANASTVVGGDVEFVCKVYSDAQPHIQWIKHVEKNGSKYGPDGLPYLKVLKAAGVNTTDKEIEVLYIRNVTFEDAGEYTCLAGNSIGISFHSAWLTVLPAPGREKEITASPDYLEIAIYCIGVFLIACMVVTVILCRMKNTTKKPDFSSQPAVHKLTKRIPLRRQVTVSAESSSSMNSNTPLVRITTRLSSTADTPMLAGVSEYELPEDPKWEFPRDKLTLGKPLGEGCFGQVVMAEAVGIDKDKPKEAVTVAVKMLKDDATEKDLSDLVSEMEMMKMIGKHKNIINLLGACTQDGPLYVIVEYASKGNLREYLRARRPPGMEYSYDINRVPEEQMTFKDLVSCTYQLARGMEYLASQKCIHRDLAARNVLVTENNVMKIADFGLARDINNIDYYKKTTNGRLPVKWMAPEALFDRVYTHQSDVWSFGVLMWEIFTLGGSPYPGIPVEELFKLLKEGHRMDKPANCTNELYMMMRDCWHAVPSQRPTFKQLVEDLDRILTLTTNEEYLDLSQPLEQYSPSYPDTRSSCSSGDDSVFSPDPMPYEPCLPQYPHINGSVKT
Structure (SMILES) | remaining activity [%]
O=c1c(-c2ccc(F)cc2)c(-c2ccncc2)[nH]n1-c1ccc(Cl)cc1 | 94
CC(C)(C)c1nc2c3cc[nH]c(=O)c3c3cc(F)ccc3c2[nH]1 | 99.1
NC(=O)c1ccc(-c2nc(-c3ccc4c(c3)OCCO4)c(-c3ccccn3)[nH]2)cc1 | 99.4
C[C@@H](N)[C@H]1CC[C@H](C(=O)Nc2ccncc2)CC1 | 95.7
O=Nc1c(-c2c(O)[nH]c3ccccc23)[nH]c2ccccc12 | 92.1
O=C(c1ccccc1)c1ccc(N2CCOCC2)cc1O | 99.1
c1cc(-c2cnn3cc(-c4ccc(OCCN5CCCCC5)cc4)cnc23)ccn1 | 80.4
O=C(O)/C=C/c1cc(Br)c(Br)c(Br)c1Br | 99.5
CCN(CC)CCCCN1c2ccccc2Oc2ccc(Cl)cc21 | 95.7
CC(C)n1cnc2c(Nc3cccc(Cl)c3)nc(NCCO)nc21 | 94.5
O=C1c2ccccc2-c2nc3nnnn3nc21 | 59.4
NC(=O)c1cccc(-c2cc(Nc3ccc(OC(F)(F)F)cc3)ncn2)c1 | 95.9
N#CC(c1ccnc(NCCc2cccnc2)n1)c1nc2ccccc2s1 (centres unmarked) | 102
FC(F)(F)c1ccc(/C=C/c2nc(COc3ccc(CCCCn4ccnn4)cc3)co2)cc1 | 96.7
Clc1ccc(Nc2nnc(Cc3ccncc3)c3ccccc23)cc1 | 96
CNc1cc2c(Nc3cccc(Br)c3)ncnc2cn1 | 96.3
CC(C)N(CCC(=O)c1ccc2ccccc2c1)Cc1ccccc1 | 107
N#C/C(=C(/N)SC1C=CC=CC1)c1cccc(C(O)c2ccncc2)c1 (centres unmarked) | 99.7
O=C1NC(=O)/C(=C/c2ccc3c(c2)OC(F)(F)O3)S1 | 97.6
CCCCc1c(-c2ccc(O)cc2)[nH]c2nccnc12 | 94.5
Nc1nc(Nc2ccc(S(N)(=O)=O)cc2)nn1C(=S)Nc1c(F)cccc1F | 7.43

Sample 4 — SMILES: O=C(Nc1ccccc1)Nc1cccc(Oc2ccc3nccn3n2)c1; concentration: 1 µM
target | technique | refers to | setting | relative to | remaining binding [%]
PLK4 (Homo sapiens, UniProt O00444) | competitive binding panel |  |  | vehicle | 100
SYK (Homo sapiens, UniProt P43405) | competitive binding panel |  |  | vehicle | 88
NEK7 (Homo sapiens, UniProt Q8TDX7) | competitive binding panel |  |  | vehicle | 100
PAK3 (Homo sapiens, UniProt O75914) | competitive binding panel |  |  | vehicle | 100
TSSK3 (Homo sapiens, UniProt Q96PN8) | competitive binding panel |  |  | vehicle | 100
RIOK1 (Homo sapiens, UniProt Q9BRS2) | competitive binding panel |  |  | vehicle | 52
PRKAA1 (Homo sapiens, UniProt Q13131) | competitive binding |  | AMPK-alpha1 |  | 89
CAMKK1 (Homo sapiens, UniProt Q8N5S9) | competitive binding panel |  |  | vehicle | 100
LIM domain kinase 1 (LIMK1, Homo sapiens, UniProt P53667) | competitive binding panel |  |  | vehicle | 100
PIKFYVE (Homo sapiens, UniProt Q9Y2I7) | competitive binding panel |  |  | vehicle | 100
TNK2 (Homo sapiens, UniProt Q07912) | competitive binding panel |  |  | vehicle | 100
ROCK1 (Homo sapiens, UniProt Q13464) | competitive binding panel |  |  | vehicle | 100
PIK3C3 (Homo sapiens, UniProt Q8NEB9) | competitive binding panel | VPS34 |  | vehicle | 100
HASPIN (Homo sapiens, UniProt Q8TF76) | competitive binding panel |  |  | vehicle | 96
TESK1 (Homo sapiens, UniProt Q15569) | competitive binding panel |  |  | vehicle | 100
STK36 (Homo sapiens, UniProt Q9NRP7) | competitive binding panel |  |  | vehicle | 100
GRK2 (Homo sapiens, UniProt P25098) | competitive binding panel |  |  | vehicle | 100
Myosin-IIIb (MYO3B, Homo sapiens, UniProt Q8WXR4) | competitive binding panel |  |  | vehicle | 100
